# Published values gathered from unrelated publications.
# Each line is one published result; not all experiments were run side by side. ± marks the error that the study gave. Where no end group is shown, it is not given here.
Molecule,organism,test,system,setting,scale,measurement,result
CCCCCCOc1c(OC)cc(NC(C)CCCN)c2nc(C(C)(C)C)ccc12 (stereo not drawn),Staphylococcus aureus,microbial killing,ATCC33591 MRSA,drug-resistant strain,,MBC,10 µg/mL
COc1cc(C=CC(=O)CC(=O)C=Cc2ccc(O)c(OC)c2)ccc1O,Plasmodium berghei,,"ANKA, C57BL/6 mice, infected","oral, 20 and 40 mg/kg",,survival time,22 days
C=C(C)CNCC(=C)C.Oc1c(Cl)c(Cl)c(Cl)c(Cl)c1Cl,Candida albicans,"biofilm formation, XTT",SC5314,"24 h, 37 °C",,IC50,4.44 µM
CP(=O)(O)CCC(N)C(=O)O (stereo not drawn),Euphorbia heterophylla,,,"125 g/ha, 13 days, EPHHL, post-emergence spray","relative to: untreated (0%), complete kill (100%)",herbicidal activity,70%
TAVDHVFLRF-NH2 (C-amide),Drosophila melanogaster,heart rate,wandering third instar larval heart,"40 nL injected, 1 µM, 10 min",relative to: DMS,inhibition,50%
CC(C)C12C=CC(C)(CC1)OO2 (stereo not drawn),Leishmania tarentolae,"viability, resazurin","promastigotes, Schneider's medium","48 h, 26 °C, together with: 10% FCS",,IC50,175 ± 83.4 µM
CCCCCCCCOc1c(OC)cc(NC(C)CCCNC(=O)C2CCCN2)c2nc(C(C)(C)C)ccc12 (stereo not drawn),Staphylococcus aureus,microbial killing,ATCC33591 MRSA,drug-resistant strain,,MBC,20 µg/mL
N#C[C@]1(CO)/C(=C\F)[C@@H](n2cnc3c(=O)[nH]c(N)nc32)C[C@@H]1O,Hepatitis B virus,HBV DNA production,"HepG2.2.15, wild type","10 µM, 11 d exposure then 14 d without compound",,inhibition,95 to 100%
C/C=C/C=C/C(=O)N/N=C/c1ccccc1,"Candida albicans, Aspergillus niger",fungal growth,,,,MIC,57.5 µM
ADVDHVFLRF-NH2 (C-amide),Drosophila melanogaster,heart rate,adult heart,"40 nL injected, 1 µM, 10 min",relative to: DMS,inhibition,108%
WRWWWW-NH2 (C-amide),Staphylococcus aureus USA300,,"peptide, female BALB/c mouse, peritonitis model","intraperitoneal, 7.5 mg/kg, 2 h after infection, given 20 min before infection",,peritoneal neutrophil influx,inhibited
CCCCCCCOc1c(OC)cc(NC(C)CCCN)c2nc(C(C)(C)C)ccc12 (stereo not drawn),Staphylococcus aureus,microbial growth,ATCC33591 MRSA,drug-resistant strain,,IC50,2.36 µg/mL
CCCCCn1c(=O)[nH]c2cc(C(=O)NCCCN3CCCCC3)ccc2c1=O,Hepatitis C virus,"HCV infection, Gaussia luciferase reporter",Huh7.5.1 reporter cells,,"relative to: 10 µM cyclosporin A, DMSO, negative means inhibition",maximal response,-72.7%
VRTRISGLY,rhesus rotavirus,viral replication,"peptide, mouse cholangiocytes","1 mM, cell pretreatment with peptide",relative to: serum-free medium,viral yield,no effect
COc1cccc(C=NNC(=O)CN2c3c(n[nH]c3-c3cccc(Cl)c3)-c3ccccc3S2(=O)=O)c1,HIV-1,viral replication,PBMC,,,EC90,> 10 µM

# A few entries again:
Molecule,organism,test,system,setting,scale,measurement,result
TAVDHVFLRF-NH2 (C-amide),Drosophila melanogaster,heart rate,wandering third instar larval heart,"40 nL injected, 1 µM, 10 min",relative to: DMS,inhibition,50%
CC(C)C12C=CC(C)(CC1)OO2 (stereo not drawn),Leishmania tarentolae,"viability, resazurin","promastigotes, Schneider's medium","48 h, 26 °C, together with: 10% FCS",,IC50,175 ± 83.4 µM
